{"data": "Published values collected from several papers", "note": "Each numbered part is a random draw from the data of one study; scales do not carry over between parts. “And” joins repeats or separate records; there may be more than shown.", "sequence of UniProt P29317 (whole entry, looked up)": "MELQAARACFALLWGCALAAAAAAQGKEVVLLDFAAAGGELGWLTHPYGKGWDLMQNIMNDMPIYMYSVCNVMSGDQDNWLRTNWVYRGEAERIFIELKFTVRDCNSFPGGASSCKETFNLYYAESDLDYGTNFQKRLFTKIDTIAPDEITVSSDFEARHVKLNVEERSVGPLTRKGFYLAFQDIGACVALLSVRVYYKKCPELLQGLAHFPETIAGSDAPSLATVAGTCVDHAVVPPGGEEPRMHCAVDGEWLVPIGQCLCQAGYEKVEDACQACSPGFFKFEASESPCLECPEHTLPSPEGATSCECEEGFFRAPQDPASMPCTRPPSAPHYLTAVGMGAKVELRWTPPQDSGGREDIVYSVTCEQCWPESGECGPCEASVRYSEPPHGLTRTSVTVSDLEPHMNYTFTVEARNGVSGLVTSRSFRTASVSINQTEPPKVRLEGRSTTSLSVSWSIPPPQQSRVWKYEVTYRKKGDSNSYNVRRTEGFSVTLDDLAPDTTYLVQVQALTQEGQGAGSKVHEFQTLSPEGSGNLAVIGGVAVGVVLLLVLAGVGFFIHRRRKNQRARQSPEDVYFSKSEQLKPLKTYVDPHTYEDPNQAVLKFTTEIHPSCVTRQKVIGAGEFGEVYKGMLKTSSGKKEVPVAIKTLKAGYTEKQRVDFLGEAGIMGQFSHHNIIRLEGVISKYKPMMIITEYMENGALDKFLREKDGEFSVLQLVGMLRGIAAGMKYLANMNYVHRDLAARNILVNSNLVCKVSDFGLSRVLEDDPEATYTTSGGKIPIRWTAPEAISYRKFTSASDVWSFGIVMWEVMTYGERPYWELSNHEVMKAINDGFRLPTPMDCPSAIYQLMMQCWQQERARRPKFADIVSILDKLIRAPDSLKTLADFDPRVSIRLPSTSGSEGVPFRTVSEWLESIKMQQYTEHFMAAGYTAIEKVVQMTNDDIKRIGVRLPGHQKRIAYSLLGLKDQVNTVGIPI", "sequence of UniProt Q9HBY8 (whole entry, looked up)": "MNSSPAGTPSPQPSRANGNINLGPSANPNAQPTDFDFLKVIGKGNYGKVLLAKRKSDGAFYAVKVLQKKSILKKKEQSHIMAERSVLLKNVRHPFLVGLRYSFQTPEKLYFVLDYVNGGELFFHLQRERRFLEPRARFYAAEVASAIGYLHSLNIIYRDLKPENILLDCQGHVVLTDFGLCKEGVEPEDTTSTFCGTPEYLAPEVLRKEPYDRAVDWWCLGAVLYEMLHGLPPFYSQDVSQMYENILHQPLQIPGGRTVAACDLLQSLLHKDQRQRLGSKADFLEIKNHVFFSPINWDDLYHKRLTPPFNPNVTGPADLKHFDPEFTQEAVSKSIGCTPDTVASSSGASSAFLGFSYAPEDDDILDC", "sequence of UniProt Q13153 (whole entry, looked up)": "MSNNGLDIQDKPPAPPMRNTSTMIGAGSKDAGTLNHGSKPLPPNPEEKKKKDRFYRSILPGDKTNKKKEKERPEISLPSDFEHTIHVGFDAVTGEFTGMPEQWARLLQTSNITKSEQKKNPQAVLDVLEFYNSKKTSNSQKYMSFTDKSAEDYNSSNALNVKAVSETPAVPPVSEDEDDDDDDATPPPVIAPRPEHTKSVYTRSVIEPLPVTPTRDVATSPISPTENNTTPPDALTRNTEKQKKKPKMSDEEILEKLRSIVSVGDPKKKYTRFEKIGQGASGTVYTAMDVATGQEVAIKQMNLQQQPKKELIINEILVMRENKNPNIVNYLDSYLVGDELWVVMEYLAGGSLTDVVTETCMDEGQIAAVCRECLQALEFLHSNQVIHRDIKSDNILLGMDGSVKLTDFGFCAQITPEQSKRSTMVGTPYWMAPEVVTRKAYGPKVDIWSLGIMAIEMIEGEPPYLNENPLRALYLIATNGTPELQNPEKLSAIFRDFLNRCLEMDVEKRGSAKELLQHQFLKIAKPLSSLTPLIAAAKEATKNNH", "sequence of UniProt P42680 (whole entry, looked up)": "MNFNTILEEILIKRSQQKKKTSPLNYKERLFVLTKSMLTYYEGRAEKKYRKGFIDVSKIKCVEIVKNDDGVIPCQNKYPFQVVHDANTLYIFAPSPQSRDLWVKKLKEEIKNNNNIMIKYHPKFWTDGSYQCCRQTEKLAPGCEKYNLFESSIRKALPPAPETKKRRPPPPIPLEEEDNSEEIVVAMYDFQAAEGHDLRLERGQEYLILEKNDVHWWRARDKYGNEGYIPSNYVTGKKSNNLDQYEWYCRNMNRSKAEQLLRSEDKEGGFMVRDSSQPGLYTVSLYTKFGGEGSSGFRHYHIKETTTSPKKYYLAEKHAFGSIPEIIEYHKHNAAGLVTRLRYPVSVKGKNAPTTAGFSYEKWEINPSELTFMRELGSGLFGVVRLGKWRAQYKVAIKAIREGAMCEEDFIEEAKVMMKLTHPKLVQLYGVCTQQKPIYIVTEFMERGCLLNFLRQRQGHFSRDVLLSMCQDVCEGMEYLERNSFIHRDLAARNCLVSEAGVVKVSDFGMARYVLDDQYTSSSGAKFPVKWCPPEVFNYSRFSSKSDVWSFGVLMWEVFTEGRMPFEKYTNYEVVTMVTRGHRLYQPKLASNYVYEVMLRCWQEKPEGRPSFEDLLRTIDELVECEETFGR", "sequence of UniProt P23458 (whole entry, looked up)": "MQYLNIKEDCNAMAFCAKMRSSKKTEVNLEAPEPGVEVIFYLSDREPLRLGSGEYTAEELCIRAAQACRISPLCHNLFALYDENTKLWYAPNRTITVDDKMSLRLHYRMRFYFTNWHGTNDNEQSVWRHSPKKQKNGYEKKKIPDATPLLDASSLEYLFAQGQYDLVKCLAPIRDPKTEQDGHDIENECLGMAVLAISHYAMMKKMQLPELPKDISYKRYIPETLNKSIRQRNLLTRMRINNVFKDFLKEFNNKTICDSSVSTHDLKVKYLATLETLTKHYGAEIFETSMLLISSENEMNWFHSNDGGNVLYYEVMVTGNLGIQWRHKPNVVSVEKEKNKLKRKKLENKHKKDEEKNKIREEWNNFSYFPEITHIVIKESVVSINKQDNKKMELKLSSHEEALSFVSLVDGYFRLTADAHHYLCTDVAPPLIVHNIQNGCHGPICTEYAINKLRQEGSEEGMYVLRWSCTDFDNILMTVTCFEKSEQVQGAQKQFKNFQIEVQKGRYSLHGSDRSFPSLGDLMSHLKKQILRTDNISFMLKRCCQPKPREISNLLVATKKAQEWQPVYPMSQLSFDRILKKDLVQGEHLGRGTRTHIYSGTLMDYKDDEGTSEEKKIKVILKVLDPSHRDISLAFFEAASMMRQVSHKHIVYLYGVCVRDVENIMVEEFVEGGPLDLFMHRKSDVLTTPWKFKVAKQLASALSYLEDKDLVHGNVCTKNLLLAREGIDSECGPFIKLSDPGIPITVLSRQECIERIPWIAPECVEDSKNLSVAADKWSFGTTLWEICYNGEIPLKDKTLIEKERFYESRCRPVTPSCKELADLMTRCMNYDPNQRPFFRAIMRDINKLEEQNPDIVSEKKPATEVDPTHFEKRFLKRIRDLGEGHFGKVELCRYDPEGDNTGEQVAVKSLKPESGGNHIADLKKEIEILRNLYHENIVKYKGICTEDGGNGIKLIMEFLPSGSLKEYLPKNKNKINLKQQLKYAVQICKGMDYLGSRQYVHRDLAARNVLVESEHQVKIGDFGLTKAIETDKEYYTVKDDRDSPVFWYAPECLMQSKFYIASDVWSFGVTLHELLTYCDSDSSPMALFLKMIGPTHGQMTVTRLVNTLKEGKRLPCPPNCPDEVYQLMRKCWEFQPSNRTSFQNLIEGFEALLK", "sequence of UniProt P48730 (whole entry, looked up)": "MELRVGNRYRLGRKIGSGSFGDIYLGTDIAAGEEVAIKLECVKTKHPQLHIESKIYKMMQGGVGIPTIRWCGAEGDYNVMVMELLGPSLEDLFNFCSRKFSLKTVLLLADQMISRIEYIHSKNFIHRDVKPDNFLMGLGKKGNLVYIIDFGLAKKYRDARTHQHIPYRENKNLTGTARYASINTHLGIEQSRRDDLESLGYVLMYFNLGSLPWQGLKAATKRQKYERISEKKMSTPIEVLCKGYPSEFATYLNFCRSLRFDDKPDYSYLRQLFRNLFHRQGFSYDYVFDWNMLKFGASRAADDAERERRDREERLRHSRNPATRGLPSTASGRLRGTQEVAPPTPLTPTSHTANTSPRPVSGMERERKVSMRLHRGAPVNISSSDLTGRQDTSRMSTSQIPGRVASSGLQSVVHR", "sequence of UniProt Q06418 (whole entry, looked up)": "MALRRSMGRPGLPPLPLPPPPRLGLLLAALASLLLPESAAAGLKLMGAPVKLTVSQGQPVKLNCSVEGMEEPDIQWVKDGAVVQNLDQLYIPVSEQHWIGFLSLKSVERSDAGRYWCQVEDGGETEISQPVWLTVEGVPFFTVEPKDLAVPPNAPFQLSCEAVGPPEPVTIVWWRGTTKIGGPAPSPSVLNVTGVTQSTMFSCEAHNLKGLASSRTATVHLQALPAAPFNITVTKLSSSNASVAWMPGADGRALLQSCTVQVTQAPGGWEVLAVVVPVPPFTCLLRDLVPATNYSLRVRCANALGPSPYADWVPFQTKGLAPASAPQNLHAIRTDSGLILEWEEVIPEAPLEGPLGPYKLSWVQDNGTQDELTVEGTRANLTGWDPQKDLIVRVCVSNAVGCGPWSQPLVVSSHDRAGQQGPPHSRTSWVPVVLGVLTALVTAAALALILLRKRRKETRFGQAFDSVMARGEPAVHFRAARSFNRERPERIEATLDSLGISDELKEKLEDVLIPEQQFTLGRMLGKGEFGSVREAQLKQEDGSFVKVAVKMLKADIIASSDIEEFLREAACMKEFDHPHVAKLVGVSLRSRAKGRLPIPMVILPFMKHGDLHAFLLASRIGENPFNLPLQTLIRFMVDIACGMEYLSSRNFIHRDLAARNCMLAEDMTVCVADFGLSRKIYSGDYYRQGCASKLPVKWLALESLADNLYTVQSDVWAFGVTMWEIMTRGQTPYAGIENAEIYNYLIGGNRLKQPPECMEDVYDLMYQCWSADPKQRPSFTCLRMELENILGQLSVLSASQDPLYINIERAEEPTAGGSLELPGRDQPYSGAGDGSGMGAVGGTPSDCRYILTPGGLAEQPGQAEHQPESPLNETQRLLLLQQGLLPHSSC"}
{"data": "Set 1", "cell line": "mouse MPNST tumor cells", "technique": "high-content nuclear imaging", "refers to": "cell number", "tested at": "10 µM", "time": "12 h", "setting": "mean of 2 replicates", "baseline": "plate mean", "reading": "higher = more cells"}
{"SMILES": "C[n+]1ccccc1/C=N/O", "nuclei count": "1.35 z-score"}
{"SMILES": "CN(C)CCC1(c2ccc(Cl)cc2)Cc2ccccc2C(=O)O1 (centres unmarked)", "nuclei count": "0.479 z-score"}
{"SMILES": "O=C(O[C@@H]1C[C@@H]2C[C@H]3C[C@H](C1)N2CC3=O)c1c[nH]c2ccccc12", "nuclei count": "-0.411 z-score and 0.52 z-score"}
{"SMILES": "COc1cc(OC2CCN(C)CC2)ccc1Nc1ncc2c(n1)n(C1CCCC1)c(=O)n2C", "nuclei count": "-4.15 z-score"}
{"SMILES": "COc1ccc2c(c1)C(=O)N(CCc1ccc(S(=O)(=O)NC(=O)NC3CCCCC3)cc1)C(=O)C2(C)C", "nuclei count": "1.57 z-score"}
{"SMILES": "Cc1cnc(Nc2ccc(F)cc2Cl)nc1-c1c[nH]c(C(=O)N[C@H](CO)c2cccc(Cl)c2)c1", "nuclei count": "-0.984 z-score"}
{"SMILES": "CCCn1c(=O)[nH]c2nc(-c3ccc(S(=O)(=O)O)cc3)[nH]c2c1=O", "nuclei count": "1.35 z-score"}
{"SMILES": "COc1ccc(Cl)cc1NC(=O)Nc1cc(C)nc2ccccc12", "nuclei count": "-0.429 z-score"}
{"SMILES": "C[C@H](NC(=O)CCc1nc2ccccc2c(=O)[nH]1)c1ccccc1", "nuclei count": "0.662 z-score"}
{"SMILES": "OC(c1cc(C(F)(F)F)nc2c(C(F)(F)F)cccc12)C1CCCCN1 (centres unmarked)", "nuclei count": "-4.94 z-score and -5.94 z-score"}
{"SMILES": "CC1=C(C#N)C(=C(C#N)C#N)OC1(C)c1ccc(Cl)c(Cl)c1 (centres unmarked)", "nuclei count": "-1.62 z-score"}
{"SMILES": "Oc1c(I)cc(Cl)c2cccnc12", "nuclei count": "1.48 z-score"}
{"SMILES": "CC(C)(C)C(=O)Oc1ccc(S(=O)(=O)Nc2ccccc2C(=O)NCC(=O)O)cc1", "nuclei count": "0.505 z-score"}
{"data": "Set 2", "Compound": "CCCOc1ccc([C@@H]2[C@@H](C(=O)O)[C@H](c3ccc4c(c3)OCO4)CN2CC(=O)Nc2c(CC)cccc2CC)cc1", "technique": "CellTiter-Glo", "species": "human", "matrix": "normal-adjacent epithelium", "tested at": "0.1 µM", "baseline": "DMSO"}
{"cell line": "normal organoid sample F", "viability": "89.5% and 124%"}
{"cell line": "normal organoid sample D", "viability": "86.9% and 98.8%"}
{"cell line": "normal organoid sample E", "viability": "96.6% and 125%"}
{"data": "Set 3", "SMILES": "O=C1NC(=O)/C(=C/c2ccc3c(c2)OC(F)(F)O3)S1", "read-out": "enzyme activity", "action": "inhibitor", "tested at": "0.5 µM", "baseline": "control"}
{"target": "Tyrosine-protein kinase receptor TYRO3 (TYRO3, Homo sapiens, UniProt Q06418)", "remaining activity": "99.6%"}
{"target": "Ephrin type-A receptor 6 (EPHA6, Homo sapiens, UniProt Q9UF33)", "remaining activity": "83.1%"}
{"target": "Mitogen-activated protein kinase kinase kinase 20 (MAP3K20, Homo sapiens, UniProt Q9NYL2)", "remaining activity": "97.6%"}
{"target": "Protein kinase C theta type (PRKCQ, Homo sapiens, UniProt Q04759)", "remaining activity": "101%"}
{"target": "Tyrosine-protein kinase JAK1 (JAK1, Homo sapiens, UniProt P23458)", "remaining activity": "104%"}
{"target": "Serine/threonine-protein kinase PAK 1 (PAK1, Homo sapiens, UniProt Q13153)", "remaining activity": "93.3%"}
{"target": "Casein kinase I isoform delta (CSNK1D, Homo sapiens, UniProt P48730)", "remaining activity": "98.9%"}
{"target": "Vascular endothelial growth factor receptor 1 (FLT1, Homo sapiens, UniProt P17948)", "remaining activity": "81.5%"}
{"target": "Dual specificity protein kinase CLK2 (CLK2, Homo sapiens, UniProt P49760)", "remaining activity": "96.6%"}
{"target": "Ribosomal protein S6 kinase alpha-3 (RPS6KA3, Homo sapiens, UniProt P51812)", "remaining activity": "103%"}
{"target": "Casein kinase I isoform epsilon (CSNK1E, Homo sapiens, UniProt P49674)", "remaining activity": "96.9%"}
{"target": "Muscle, skeletal receptor tyrosine-protein kinase (MUSK, Homo sapiens, UniProt O15146)", "remaining activity": "70.9%"}
{"target": "Serine/threonine-protein kinase SIK2 (SIK2, Homo sapiens, UniProt Q9H0K1)", "remaining activity": "101%"}
{"target": "Insulin-like growth factor 1 receptor (IGF1R, Homo sapiens, UniProt P08069)", "remaining activity": "101%"}
{"target": "Ephrin type-A receptor 2 (EPHA2, Homo sapiens, UniProt P29317)", "remaining activity": "96.3%"}
{"target": "Dual specificity protein kinase CLK1 (CLK1, Homo sapiens, UniProt P49759)", "remaining activity": "102%"}
{"target": "SRSF protein kinase 1 (SRPK1, Homo sapiens, UniProt Q96SB4)", "remaining activity": "105%"}
{"target": "Tyrosine-protein kinase Tec (TEC, Homo sapiens, UniProt P42680)", "remaining activity": "108%"}
{"target": "Cyclin-dependent kinase 2, with cyclin E (CDK2, Homo sapiens, UniProt P24941)", "remaining activity": "89.9%"}
{"target": "Serine/threonine-protein kinase Sgk2 (SGK2, Homo sapiens, UniProt Q9HBY8)", "remaining activity": "82.2%"}
{"target": "Calcium/calmodulin-dependent protein kinase type 1 (CAMK1, Homo sapiens, UniProt Q14012)", "remaining activity": "89.9%"}
{"data": "Set 4", "technique": "logD(dd/w) and ALogP", "setting": "JT method"}
{"SMILES": "CC(C)C[C@@H]1NC(=O)[C@H](C)NC(=O)[C@H](C)NC(=O)[C@@H](CC(C)C)NC(=O)[C@H](C)NC(=O)[C@H](CC(C)C)NC(=O)[C@H](CC(C)C)NC1=O", "lipophilic permeability efficiency": 2.35}
{"SMILES": "CC(C)C[C@@H]1NC(=O)[C@H](C(C)C)NC(=O)[C@H](Cc2cscn2)NC(=O)[C@H](CC(C)C)NC(=O)[C@@H](CCC(=O)N2CCCC2)NC(=O)[C@H](CC(C)C)NC(=O)[C@@H](CC(C)C)NC1=O", "lipophilic permeability efficiency": 2.09}
{"SMILES": "CC(C)C[C@@H]1NC(=O)[C@H](C(C)C)NC(=O)[C@H](CCC(=O)N2CCCC2)NC(=O)[C@H](CCC(=O)N2CCCC2)NC(=O)[C@@H](CCC(=O)N2CCCC2)NC(=O)[C@H](CC(C)C)NC(=O)[C@@H](CC(C)C)NC1=O", "lipophilic permeability efficiency": 1.94}
{"SMILES": "CC(C)C[C@@H]1NC(=O)[C@H](CC(C)C)NC(=O)[C@@H](CC(C)C)NC(=O)[C@H](CC(C)C)NC(=O)[C@@H](CCC(=O)N2CCCC2)NC(=O)[C@H](C)NC(=O)[C@H](C)NC1=O", "lipophilic permeability efficiency": 1.78}
{"SMILES": "CC(C)C[C@@H]1NC(=O)[C@H](C(C)C)NC(=O)[C@@H](CC(C)C)NC(=O)[C@@H](CC(C)C)NC(=O)[C@H](C(C)C)NC(=O)[C@H](CC(C)C)NC(=O)[C@@H](CC(C)C)NC1=O", "lipophilic permeability efficiency": 3.3}
{"SMILES": "CC(C)C[C@@H]1NC(=O)[C@H](CC(C)C)NC(=O)[C@@H](CC(C)C)NC(=O)[C@@H](CC(C)C)NC(=O)[C@@H](CCC(=O)N2CCCC2)NC(=O)[C@H](CC(C)C)NC(=O)[C@@H](CC(C)C)NC1=O", "lipophilic permeability efficiency": 2.24}
{"SMILES": "CC(C)C[C@@H]1NC(=O)[C@H](CC(C)C)NC(=O)[C@@H](C(C)C)NC(=O)[C@H](C(C)C)NC(=O)[C@@H](Cc2cscn2)NC(=O)[C@H](C)NC(=O)[C@H](CCC(=O)N2CCCC2)NC1=O", "lipophilic permeability efficiency": 1.51}
{"SMILES": "CC(C)C[C@@H]1NC(=O)[C@H](CC(C)C)NC(=O)[C@@H](C(C)C)NC(=O)[C@H](CC(C)C)NC(=O)[C@H](C(C)C)NC(=O)[C@H](C)NC(=O)[C@H](C)NC1=O", "lipophilic permeability efficiency": 2.68}
{"SMILES": "CC(C)C[C@@H]1NC(=O)[C@H](CC(C)C)NC(=O)[C@@H](CC(C)C)NC(=O)[C@H](CC(C)C)NC(=O)[C@H](C(C)C)NC(=O)[C@H](Cc2cscn2)NC(=O)[C@H](C)NC1=O", "lipophilic permeability efficiency": 2.64}
{"SMILES": "CC(C)C[C@@H]1NC(=O)[C@H](C)NC(=O)[C@@H](CC(C)C)NC(=O)[C@@H](CC(C)C)NC(=O)[C@H](C(C)C)NC(=O)[C@H](CC(C)C)NC(=O)[C@@H](CC(C)C)NC1=O", "lipophilic permeability efficiency": 3.28}
{"note": "A few entries again (set 1):"}
{"SMILES": "CN(C)CCC1(c2ccc(Cl)cc2)Cc2ccccc2C(=O)O1 (centres unmarked)", "nuclei count": "0.479 z-score"}
{"SMILES": "O=C(O[C@@H]1C[C@@H]2C[C@H]3C[C@H](C1)N2CC3=O)c1c[nH]c2ccccc12", "nuclei count": "-0.411 z-score and 0.52 z-score"}
{"SMILES": "COc1cc(OC2CCN(C)CC2)ccc1Nc1ncc2c(n1)n(C1CCCC1)c(=O)n2C", "nuclei count": "-4.15 z-score"}
{"SMILES": "COc1ccc2c(c1)C(=O)N(CCc1ccc(S(=O)(=O)NC(=O)NC3CCCCC3)cc1)C(=O)C2(C)C", "nuclei count": "1.57 z-score"}
